Experimental data of several laboratories.
A part holds a random share of what one study measured.

Series 1
Target: RING finger protein unkempt homolog, zinc fingers 1-6, GST-SBP tag (UNK, Homo sapiens, UniProt Q9C0B0, residues 30-357)
Technique: RNA Bind-n-Seq
Molecule type: RNA
Medium: in vitro
Tested at: not given
Notes: RNA with constant flanks, ends assumed
Baseline: input RNA pool
Reading: higher = stronger binding
Shared flanks, not repeated: GGGAGUUCUACAGUCCGACGAUC … CAACAGAGGAUUGAGCAUCA
Construct (chain): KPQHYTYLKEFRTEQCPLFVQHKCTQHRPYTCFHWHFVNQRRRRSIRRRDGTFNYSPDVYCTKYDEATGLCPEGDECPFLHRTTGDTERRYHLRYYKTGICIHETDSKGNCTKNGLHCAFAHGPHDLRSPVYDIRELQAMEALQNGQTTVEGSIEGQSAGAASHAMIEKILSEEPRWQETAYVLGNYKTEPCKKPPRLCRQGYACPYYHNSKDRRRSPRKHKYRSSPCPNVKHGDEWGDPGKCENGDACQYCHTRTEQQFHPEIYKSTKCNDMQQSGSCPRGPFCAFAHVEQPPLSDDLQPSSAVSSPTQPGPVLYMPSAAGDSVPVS
Oligonucleotide	bound/input enrichment
GAAGAAGCAUGCUUCACUCUCCAGUACUUAAACAAACUGUCCAUGAAACCAGAGCCUCUAUUCCGAAGUGUAGGCAAUACCAUUGAGCCUGUCAUCCUGUUCCAGAAGAUGGGAGUGGGC	0.0946 ratio
GGCAUUGCCCUUGACCAUCUUGGUCGAACCAUCUUCUGGACGGACUCUCAGUUGGAUCGAACCGAAGUUGCAAAGAUGGAUGGCACCCAGCGCCGAGUGCUGUUUGACACGGGUUUGGUG	0.0794 ratio
GUUAUAGGAGUUUACAAAAAAAUACCAACAUGUCAUCACCCACGCCAUUUAAGAUGAGAUCCGUUCAUUUGGACCUUAAAGGAGCGCCGCCAAAGGUUUCAUAUCUCUCUGAGGUUUUUC	1.65 ratio
GGCUCCCCUUCUACUGAAUUAGUUUCUGGAGGAUCUGAUAAUCAAGUGAUUCACUGGGAAACCGAGGAUAAUCAGCUUUUAAAAGCAGUGCAUCUUCAAGGCCAUGAAGGACCUGUUUAU	0.149 ratio
UUGGUCAUAUCAAACAUUAAAAAUGACCACUCUUUUAAUUGAAAUUAACUUUUAAAUGUUUACCGGAGUAUGUGCUGUGAAGUGAUCUAAAAUUUGUAAUAUUUUUGUCAUGAACUGUAC	0.237 ratio
AUUUAUCUGUAUGAAAUUCCAGCAGUUAAUUUGAACGUUUAUGUAUAGGAUGUUUGUAUUCUCCGGUCUUUACUACAGUGUUUCUACCUCUCAUUUGUAACUGCAUUAUCUUCAAAAUAG	1.24 ratio
UCCGAUAACUCCAGGUUUCCACUUGCAGUUGUAGAAGAGCCAAUUACUGUGGAAGUGGCUUUCCGAAACCCUUUAAAAGUUCCGCUUUUGCUGUCUGAUUUGUCAUUACUCUGGAAGUUU	0.185 ratio
AGUAGUACCAGUUUGCCACCUGUCGCUGAUGAAAGCCCAGUCACUGUAAAACCAGACCGUCAACUUGAAGACAUGGGAUACUGUGUGUUCAACAAGUACACAGUCCCUCUCCCAUCACCA	0.305 ratio
GGAAUAUUCAUUGUGCUGAAUAUUACCCUUGUGUUUGCAGCUGUAUUUAAACUUGAAACAGACCGAACUGUAUGGCCCUUGAUAAGAAUCUAUCGGGGUGGCUUUCUUCUGAUUGAAUUC	0.124 ratio
CUCUCCAGUUCCAAGGACUCGUAUACAGCUCCCAUUUAUAAUUUUGCCCUUAUUUUUAAGUCCGGAAAUAAUGAUUAACUUAUGAAUAAAUAGUAUGGGGCAAGAGUGGGAUUUCUUCCG	0.438 ratio
AUGUGCAAGGAAAUUAUUCCAACUAGUGAAUUUAUUAACAGUAAGUUAACAGCAAAAGCAAACCGGCAACUUCAAGAUCCUUUAGUAAUCAUGACAGGAAACAUCCCAACAUGGCUUACU	0.803 ratio

Series 2
Target: RNA binding protein fox-1 homolog 2, RRM domain, GST-SBP tag (RBFOX2, Homo sapiens, UniProt O43251-10, residues 100-194)
Technique: RNA Bind-n-Seq
Molecule type: RNA
Medium: in vitro
Tested at: 365 nM
Notes: natural RNA segment, single round, ends assumed
Baseline: no-protein control
Reading: higher = stronger binding
Shared flanks, not repeated: GGGAGUUCUACAGUCCGACGAUC … UGGAAUUCUCGGGUGCCAA
Target sequence (chain): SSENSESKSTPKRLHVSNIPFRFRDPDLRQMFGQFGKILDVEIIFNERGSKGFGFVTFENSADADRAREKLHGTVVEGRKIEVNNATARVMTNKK
Oligonucleotide	RBNS enrichment (R)
CGCCAGUAACUCGCCCUUCUUGGCAGGUGUCGCCUGAUUCUGAUAAUGCUGUGUUUGUUGUAAAGGUUUCCAGGACUGAGACCUUAUUCCCUGGGCUUCGUGAAAUGGCA	3.46
UAUACAUAUGUAUAUAUAUUUAAAUACACAUAUAUAUUGUACAGAAUAAAAAUGUUUUAUUGAAUACCUGUGCUUAUGCGUUAGCUACAGGCUCAGCUUCCUUCCAGGGC	0.438
UGAGACCUGCUCAUCGUGCGACUGUAACCCUUCAGUCCUAGCUGCUUUUGAAGAGGUUUCCAUUUUUAUUUAAAUUGCUAAUGGAUCAGAGAACAAUUGUUUAUUUUUUC	0.755
GAAAGUGCAGGCUUUGGGAGCAGGUGGCAGAGGGAGGAAGCAAAGAAAGAGCCAAAUAUGAUGAUCACAGCUUAUAGUAGCAGUAAAACUGUUUUCUUUCUUUUUUCCUG	0.593
GUGCGGUGGGACUCCACAUGCGCCGGAAGGAGCUUCAGGUGAGCACUGCUCAUGUGUGGAUGCCCCUGCAACAGGCUUCCCUGUCUGUAGAGCCAGGGGUGCAAGUGCCA	0.24
CAGGCCAUUUCCAGUGAAAGAAACUUAGUUUUACAAGAAAACAUUUGCUACUGAAUGCUUACACUAAUCUUGGUGUUUAAUGUUACAUGCUUAAAUUCUUUUCAGUUUUC	1.59
GGUUUAAAAAACGCCAUGUCAUUGAUAACUCCCUUUCUCCCUUCCCUUCUCCCGGUCUGCUGAUCACUCUUUCAUGCCUGUGUAUCCAGGGUGCUCUGUUUCCCCACCGU	1.17
UCCUUGCCACGUUAAUAAAGCCAAAAGCAGCGGGUGCUAUUCGUGGCAACACACUUCACUGAACCCACUUGCUUCCAAAACGAUGCCAGCCCGAGGCACUGCUACGCCAG	0.396
UAAAACAGAACUUUCCCAUUAUCUGUAGGGAACAGAGUAACGCAUAGUCUUUAAAAAUCAGUCCCAGAAGAGAGCAUUGCUUUACUGAGGGGCCUUCUCAGUGCAGUGUC	0.882
GAAACGGGCUCACCUGGACUAUAGAAUUUCUGCUGGUCAGAUAAAGACAGCAUUCCUCGGGAACCCGUGAAACUGGUUCUCUCUCUACCAAAUGGAGUCAUUCUCCUUAC	0.338
CCUCUCUGCUGCCGGUGAUGGGAGGCCUUUCUAGACCUGGCUCUUUCUCUCCCGUCUCAGUGGCUUCUCUGAGGUGCUGUACACGCGCGUUAACCUGUUCCCUUCUCUAU	0.243
CACAUAAGAUUAAAAAUUCCUUCCUCAGUUGCACUAACCACGUUUCUAGAGGCGUCACUGUAUGUAGUUCAUGGCUACUGUACUGACAGCGAGAGCAUGUCCAUCUGUUG	9.7

Series 3
Target: Fragile X messenger ribonucleoprotein 1, C-terminal low-complexity region (Fmr1, Mus musculus, UniProt P35922)
Technique: RNA Bind-n-Seq
Molecule type: RNA
Medium: in vitro
Tested at: 200 nM
Notes: whole 134-nt RNA, ends assumed
Added: 150 mM KCl
Baseline: input library
Reading: higher = stronger binding
Shared flanks, not repeated: GGGAGUUCUACAGUCCGACGAUC … UGGAAUUCUCGGGUGUCAAGG
Oligonucleotide	log2 enrichment
CAACUUUAGAGGAGGAUCUGAUGGAUAUGGCAGUGGACGUGGAUUUGGGGAUGGCUAUAAUGGGUAUGGAGGAGGACCUGGAGGUGGCAA	0.433
UAACUUUAGAGGAGGAUCUGAUGGAUAUGGCAGUGAACGUGGAUUUGGGGAUGGCUAUAAUGGGUAUGGAGGAGGACCUGGAGGUGGCAA	0.255
GUCCUGUGCUACACAUCGUAUGUACCGAAUCGGUUUUUUUGGAAAAAGGUUUUUUUGGAAAGUAUUAUGUUACGCCGUUCGGAUCUGCAC	-1.11
GUCCUGUGCUACACAUCGUAUGUACCGAAUCGGGGAAAGGGGAAAGGGGAAAAAGGGGAAAGUAUUAUGUUACGCCGUUCGGAUCUGCAC	0.0944
AGUCCUGUGCUACACAUCGUAUGUACCGAAUCGGGGAAAAGGGGAAAAGGGAAAAGGGAAAGUAUUAUGUUACGCCGUUCGGAUCUGCAC	0.392
AGUCCUGUGCUACACAUCGUAUGUACCGAAUCGGGUGGGAAAAAGGGAAAAAAAGGGAAAGUAUUAUGUUACGCCGUUCGGAUCUGCACU	0.249
UGUGCUACACAUCGUAUGUACCGAAUCGGGGCCCCCCCGGGGCCCCCCCGGCCCCCCCGGGGAAAGUAUUAUGUUACGCCGUUCGGAUCU	-1.59
GUCCUGUGCUACACAUCGUAUGUACCGAAUCGGAAAAAGGUUUUUUUGGAAAAAAAGGAAAGUAUUAUGUUACGCCGUUCGGAUCUGCAC	-1.09
CAAGUCCUGUGCUACACAUCGUAUGUACCGAAUCGGGAAAAAGGGUGGGAAAGGGAAAGUAUUAUGUUACGCCGUUCGGAUCUGCACUUC	0.721
AGUCCUGUGCUACACAUCGUAUGUACCGAAUCGGGGAAAGGGGUUUGGGGAAAGGGGAAAGUAUUAUGUUACGCCGUUCGGAUCUGCACU	0.58
UCCUCAAGUCCUGUGCUACACAUCGUAUGUACCGAAUCGGCGGGGCGGGCGGAAAGUAUUAUGUUACGCCGUUCGGAUCUGCACUUCCAG	0.186
GCAGGAAGUAAAAACAAAUGGAAAUGCUUCGGAUAGUGGCAGGGGUGGUGGUUGCUAAGGAAAGGGUGGGAUGGGAGUGGGUAAAGAGUU	0.154
CCUGUGCUACACAUCGUAUGUACCGAAUCGGGGUUUUUUUGGGGAAAAAGGGGAAAGGGGAAAGUAUUAUGUUACGCCGUUCGGAUCUGC	0.235
CAAGUCCUGUGCUACACAUCGUAUGUACCGAAUCGGGUUUUUGGGUGGGUUUGGGAAAGUAUUAUGUUACGCCGUUCGGAUCUGCACUUC	1.13

Series 4
Target: PABPC1L2, full length, GST fusion (mouse, UniProt A0ABA7IW68)
Technique: RNAcompete
Molecule type: RNA
Medium: in vitro
Tested at: 20 nM
Notes: 7-mer, probes averaged, single round
Baseline: mean of 7-mers
Reading: higher = stronger binding
Construct (chain): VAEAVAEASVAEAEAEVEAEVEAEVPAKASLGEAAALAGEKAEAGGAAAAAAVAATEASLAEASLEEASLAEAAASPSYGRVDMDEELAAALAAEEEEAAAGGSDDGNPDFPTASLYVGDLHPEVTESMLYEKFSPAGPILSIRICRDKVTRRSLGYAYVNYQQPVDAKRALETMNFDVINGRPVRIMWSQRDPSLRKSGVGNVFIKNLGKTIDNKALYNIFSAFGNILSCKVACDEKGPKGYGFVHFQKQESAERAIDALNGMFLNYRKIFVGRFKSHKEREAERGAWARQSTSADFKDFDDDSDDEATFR
Oligonucleotide	7-mer Z-score
AACCUUC	-0.249
GUUCUCA	-0.45
CCCGACU	-0.306
AUAGCAA	0.00979
UCAGUAG	-0.11
GGUGGCC	-0.0446
CUCCGUG	-0.238
AAUUACG	0.254
UUUUAUU	-0.103
GAUACUU	-0.0863
UAGUGCG	-0.171
GCCUCGU	-0.385
CGCCCAU	-0.342
GGUGGAU	0.187
GCGGAGU	-0.101
AUUUGUC	-0.423
ACAGAUA	0.0787
GUUAACG	-0.0591
GAAUGCA	-0.0718
GCAUCGU	-0.166
CUGCCAC	-0.168
GAGACUC	-0.235
GAGACAC	0.155
UCUGCCA	-0.3
GCUAGAA	0.244

Series 5
Target: Histone acetyltransferase KAT6A, both winged helices, GST fusion (KAT6A, Homo sapiens, UniProt Q92794, residues 1-181)
Technique: protein binding microarray
Molecule type: double-stranded DNA, one strand shown
Medium: in vitro
Tested at: not given
Notes: 8-mer, flanks averaged, mean of 2 arrays, mostly near background
Baseline: not given
Reading: higher = stronger binding
Target sequence (chain): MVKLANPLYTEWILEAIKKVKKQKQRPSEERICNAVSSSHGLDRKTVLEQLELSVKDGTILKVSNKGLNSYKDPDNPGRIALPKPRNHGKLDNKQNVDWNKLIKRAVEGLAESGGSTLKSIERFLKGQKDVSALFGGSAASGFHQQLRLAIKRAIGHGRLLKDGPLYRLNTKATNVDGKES
Oligonucleotide	E-score
GATGAAAA	0.059
CCCACTAG	-0.153
GGGAGTGA	-0.0927
GGATAAAA	-0.00216
AAAGCAGC	0.0952
AATAATGA	-0.0423
ACCCAGGA	-0.0948
CTTCTTAA	-0.127
GCTGTTTA	0.0272
ATTTAGCC	0.0546
CGGAAAGA	0.193
ATAGACAG	-0.113
ATCCATAA	-0.118
ACTCTCGG	0.0616
CGTGGTAG	-0.0325
ATGTTCAA	0.102
AATGTACC	-0.0131
CGCCCTTC	0.149
CCGCTTAC	0.133
GCCATCCA	-0.0233
CCACCAGA	-0.214
CAGTTGCC	0.0242
CCCGGTAA	0.198
